# Measured values of several laboratories.
# “And” joins repeats or separate records; there may be more than shown. Numbers after ± are the reported error.
# Chain of UniProt D0VWV4 (whole entry, looked up): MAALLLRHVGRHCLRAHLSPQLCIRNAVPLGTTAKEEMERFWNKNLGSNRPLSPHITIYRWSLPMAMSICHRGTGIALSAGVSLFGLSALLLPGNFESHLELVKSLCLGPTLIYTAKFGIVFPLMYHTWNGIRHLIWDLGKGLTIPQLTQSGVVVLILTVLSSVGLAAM
# Chain of UniProt Q007T0 (whole entry, looked up): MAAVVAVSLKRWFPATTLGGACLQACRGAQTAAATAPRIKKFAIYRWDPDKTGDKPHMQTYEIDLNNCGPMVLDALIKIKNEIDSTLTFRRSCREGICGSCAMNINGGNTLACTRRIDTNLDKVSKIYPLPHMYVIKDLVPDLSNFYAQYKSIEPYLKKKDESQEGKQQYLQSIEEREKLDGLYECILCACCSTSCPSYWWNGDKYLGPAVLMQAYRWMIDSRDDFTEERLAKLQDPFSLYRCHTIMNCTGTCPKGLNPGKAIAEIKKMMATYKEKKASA
# Chain of UniProt A5GZW8 (whole entry, looked up): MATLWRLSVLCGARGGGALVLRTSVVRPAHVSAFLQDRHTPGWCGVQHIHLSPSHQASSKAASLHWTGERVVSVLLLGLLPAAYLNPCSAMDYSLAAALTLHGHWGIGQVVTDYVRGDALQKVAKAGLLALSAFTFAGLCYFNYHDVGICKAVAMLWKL
# Chain of UniProt P0A988 (whole entry, unmodified, looked up): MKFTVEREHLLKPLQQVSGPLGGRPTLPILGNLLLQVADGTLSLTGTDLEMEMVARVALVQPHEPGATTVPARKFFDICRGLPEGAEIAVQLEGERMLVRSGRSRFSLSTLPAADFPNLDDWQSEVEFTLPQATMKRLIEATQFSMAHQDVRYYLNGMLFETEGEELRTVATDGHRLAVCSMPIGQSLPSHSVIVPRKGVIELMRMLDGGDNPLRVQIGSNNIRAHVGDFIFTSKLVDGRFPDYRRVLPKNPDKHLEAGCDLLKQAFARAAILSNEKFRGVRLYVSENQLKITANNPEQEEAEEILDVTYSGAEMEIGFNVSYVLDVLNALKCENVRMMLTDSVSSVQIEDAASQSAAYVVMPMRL
# Chain of UniProt Q16531 (whole entry, looked up): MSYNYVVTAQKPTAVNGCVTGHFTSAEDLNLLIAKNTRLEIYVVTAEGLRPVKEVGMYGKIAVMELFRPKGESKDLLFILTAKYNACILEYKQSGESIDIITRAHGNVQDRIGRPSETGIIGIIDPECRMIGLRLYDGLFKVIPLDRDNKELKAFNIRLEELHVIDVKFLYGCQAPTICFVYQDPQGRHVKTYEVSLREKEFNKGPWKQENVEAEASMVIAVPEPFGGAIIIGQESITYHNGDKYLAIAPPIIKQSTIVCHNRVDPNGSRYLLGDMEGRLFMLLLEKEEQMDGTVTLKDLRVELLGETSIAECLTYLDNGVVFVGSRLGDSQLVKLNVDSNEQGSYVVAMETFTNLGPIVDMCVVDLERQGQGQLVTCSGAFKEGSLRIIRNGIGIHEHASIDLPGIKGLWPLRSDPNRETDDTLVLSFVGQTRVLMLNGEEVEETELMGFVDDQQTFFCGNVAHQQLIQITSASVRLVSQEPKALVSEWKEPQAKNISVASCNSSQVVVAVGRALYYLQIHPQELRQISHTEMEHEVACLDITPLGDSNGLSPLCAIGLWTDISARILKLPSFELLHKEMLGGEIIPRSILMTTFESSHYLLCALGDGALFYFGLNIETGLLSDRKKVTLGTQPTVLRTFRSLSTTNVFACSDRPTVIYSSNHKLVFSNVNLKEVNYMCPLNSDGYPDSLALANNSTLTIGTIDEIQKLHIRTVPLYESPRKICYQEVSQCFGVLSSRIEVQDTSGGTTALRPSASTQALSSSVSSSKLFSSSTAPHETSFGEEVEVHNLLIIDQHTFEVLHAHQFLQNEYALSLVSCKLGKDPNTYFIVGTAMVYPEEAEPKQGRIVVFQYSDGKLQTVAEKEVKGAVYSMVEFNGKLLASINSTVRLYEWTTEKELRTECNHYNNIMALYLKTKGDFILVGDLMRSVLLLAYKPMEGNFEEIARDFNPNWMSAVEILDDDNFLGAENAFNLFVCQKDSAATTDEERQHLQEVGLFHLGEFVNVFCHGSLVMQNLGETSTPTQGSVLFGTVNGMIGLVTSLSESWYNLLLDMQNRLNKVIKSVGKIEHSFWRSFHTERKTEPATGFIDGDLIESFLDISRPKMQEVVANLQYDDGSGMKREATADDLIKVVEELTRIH
# Chain of UniProt P33533 (whole entry, looked up): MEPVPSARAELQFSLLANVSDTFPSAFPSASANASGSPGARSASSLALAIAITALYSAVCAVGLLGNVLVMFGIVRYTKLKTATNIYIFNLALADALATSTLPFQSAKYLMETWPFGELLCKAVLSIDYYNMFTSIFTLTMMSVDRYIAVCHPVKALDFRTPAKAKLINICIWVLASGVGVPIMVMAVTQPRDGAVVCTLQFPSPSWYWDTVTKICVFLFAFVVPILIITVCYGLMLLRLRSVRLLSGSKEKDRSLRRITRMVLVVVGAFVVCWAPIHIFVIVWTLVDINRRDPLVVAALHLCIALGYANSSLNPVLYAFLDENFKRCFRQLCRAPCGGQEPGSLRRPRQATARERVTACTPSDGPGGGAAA
# Chain of UniProt Q9Y2H1 (whole entry, looked up): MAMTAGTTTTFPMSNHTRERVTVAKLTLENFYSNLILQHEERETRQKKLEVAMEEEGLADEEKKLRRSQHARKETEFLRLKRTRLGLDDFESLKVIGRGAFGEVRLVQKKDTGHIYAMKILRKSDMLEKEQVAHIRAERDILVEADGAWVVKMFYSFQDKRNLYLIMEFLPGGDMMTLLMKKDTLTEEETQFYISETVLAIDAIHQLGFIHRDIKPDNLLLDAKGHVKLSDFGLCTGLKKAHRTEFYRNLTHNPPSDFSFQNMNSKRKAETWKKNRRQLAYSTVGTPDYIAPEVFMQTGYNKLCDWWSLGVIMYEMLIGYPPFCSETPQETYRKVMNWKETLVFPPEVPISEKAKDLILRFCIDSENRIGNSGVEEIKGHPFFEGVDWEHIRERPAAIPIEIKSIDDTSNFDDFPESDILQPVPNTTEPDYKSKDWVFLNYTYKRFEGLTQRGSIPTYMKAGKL
# Chain of UniProt Q13554 (whole entry, looked up): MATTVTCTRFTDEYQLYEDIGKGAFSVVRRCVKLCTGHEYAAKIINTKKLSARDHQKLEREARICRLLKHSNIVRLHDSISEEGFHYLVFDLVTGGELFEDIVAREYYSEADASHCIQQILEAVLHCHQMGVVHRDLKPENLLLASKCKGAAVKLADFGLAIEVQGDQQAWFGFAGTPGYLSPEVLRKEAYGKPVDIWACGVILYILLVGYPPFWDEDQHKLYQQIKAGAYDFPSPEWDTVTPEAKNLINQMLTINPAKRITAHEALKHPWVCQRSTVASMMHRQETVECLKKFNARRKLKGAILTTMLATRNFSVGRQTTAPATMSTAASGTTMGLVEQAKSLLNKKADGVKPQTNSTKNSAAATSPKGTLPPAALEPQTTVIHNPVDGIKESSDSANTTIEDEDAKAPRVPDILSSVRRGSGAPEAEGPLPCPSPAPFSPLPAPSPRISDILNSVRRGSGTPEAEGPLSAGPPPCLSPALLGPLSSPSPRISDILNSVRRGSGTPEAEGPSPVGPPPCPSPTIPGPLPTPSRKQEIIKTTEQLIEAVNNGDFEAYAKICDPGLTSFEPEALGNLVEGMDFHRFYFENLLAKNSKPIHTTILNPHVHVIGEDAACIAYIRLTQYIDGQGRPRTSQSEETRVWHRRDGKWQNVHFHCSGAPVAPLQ
# Chain of UniProt P08172 (whole entry, looked up): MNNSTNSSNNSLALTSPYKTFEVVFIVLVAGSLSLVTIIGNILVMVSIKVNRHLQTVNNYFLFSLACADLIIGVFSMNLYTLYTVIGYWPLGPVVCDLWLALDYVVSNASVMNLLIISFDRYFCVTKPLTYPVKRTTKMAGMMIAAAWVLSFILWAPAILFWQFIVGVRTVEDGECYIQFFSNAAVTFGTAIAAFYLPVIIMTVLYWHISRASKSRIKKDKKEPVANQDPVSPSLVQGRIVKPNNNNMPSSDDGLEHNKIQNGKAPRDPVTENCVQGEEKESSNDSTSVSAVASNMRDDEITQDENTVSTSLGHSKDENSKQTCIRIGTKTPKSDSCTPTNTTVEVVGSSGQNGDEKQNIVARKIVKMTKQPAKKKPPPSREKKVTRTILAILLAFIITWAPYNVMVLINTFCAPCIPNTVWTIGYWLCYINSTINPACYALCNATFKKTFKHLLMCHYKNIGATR
# Chain of UniProt Q8BLF1 (whole entry, looked up): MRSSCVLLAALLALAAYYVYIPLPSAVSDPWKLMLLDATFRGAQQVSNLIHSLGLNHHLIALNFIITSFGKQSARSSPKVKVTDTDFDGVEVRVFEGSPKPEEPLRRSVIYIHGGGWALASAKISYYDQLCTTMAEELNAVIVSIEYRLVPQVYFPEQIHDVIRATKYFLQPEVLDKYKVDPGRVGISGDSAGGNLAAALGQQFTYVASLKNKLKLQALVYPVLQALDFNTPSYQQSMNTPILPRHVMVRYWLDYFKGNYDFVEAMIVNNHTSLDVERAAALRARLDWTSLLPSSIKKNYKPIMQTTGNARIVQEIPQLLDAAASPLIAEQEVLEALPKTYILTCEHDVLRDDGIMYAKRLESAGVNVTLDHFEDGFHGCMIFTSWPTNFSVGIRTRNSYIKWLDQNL
SMILES,target or system,test,test system,conditions,scale,quantity,value
O=C1NC(=O)c2c1c1cc(F)c[n+]3c1c1c2c2cc(O)ccc2[n]1[Ru-4]312([N]=C=S)[S+]3CC[S+]1CC[S+]2CC3 (stereo not shown),"PIM3 (Homo sapiens, UniProt Q86V86)",enzyme activity,,"100 nM, human enzyme, added: 10 µM ATP",reference: untreated,remaining activity,14%
CCn1nc(Cl)c2c1-c1cnc(N)c(c1)O[C@H](C)c1cc(F)ccc1-c1nn(C)cc1C2,"EPHA7 (Homo sapiens, UniProt Q15375)","kinase activity, inhibitor",,,reference: IC50 EPHA7 over IC50 ALK,selectivity ratio,167 fold
CC(O)C1CN(C(Cc2ccc3ccccc3c2)CN2CCCC2CN2CCNCC2CO)CCN1CCCC1CCCC1 (stereo not shown),"Oprd1 (Rattus norvegicus, UniProt P33533)",radioligand binding,rat brain membranes,"500 nM, pH 7.5, 25 °C, added: 2 nM [3H]DPDPE",,remaining binding,92%
CN(C)[C@H]1C[C@@]23CC[C@@]4(O2)C(=CC[C@]2(C)[C@@H](c5ccc6ccncc6c5)CC[C@H]24)C=C3[C@@H](O)[C@@H]1O,"STK38L (Homo sapiens, UniProt Q9Y2H1)","ATP probe labelling, inhibitor, KiNativ profiling",,0.1 µM,,inhibition,3.2%
CCN(N=Cc1cnc2ccc(Br)cn12)S(=O)(=O)c1cc([N+](=O)[O-])ccc1C,"PIK3CB (Homo sapiens, UniProt P42338)",luminescence,,,reference: wild-type p110β,IC50 fold change,1
N[C@H](C(=O)N1CCCC1)C1CCN(c2nccc3c(-c4ncc(Cl)cc4Cl)cccc23)CC1,"CHRM2 (Homo sapiens, UniProt P08172)","functional response, antagonist",,10 µM,,inhibition,14%
CON(C(=O)c1cn(C)nc1C(F)F)C(C)Cc1c(Cl)cc(Cl)cc1Cl (stereo not shown),"SDHD/SDHC/SDHB (Sus scrofa, UniProt A5GZW8+D0VWV4+Q007T0)","enzyme activity, inhibitor, DCIP reduction",pig,"1 µM, added: DCIP 160 µM",,reaction velocity,0.00835 µM/s and 0.009 µM/s
CC(=O)N[C@@H](CCC(N)=O)C(=O)N[C@@H](CC1CCCCC1)C(=O)N[C@@H](CNC(=O)CCl)C(=O)N[C@@H](CC(C)C)C(=O)N[C@@H](Cc1ccccc1)C(=O)O,"Beta sliding clamp (Escherichia coli, UniProt P0A988)","binding, isothermal titration calorimetry",,"pH 7.4, 37 °C",,-TΔS,8.1 kcal/mol
CC(C)[C@H]1NC(=O)C[C@H]2/C=C/CCSSC[C@@H](NC1=O)C(=O)N[C@H](Cc1cccc3ccccc13)C(=O)NCC(=O)O2,"CAMK2B (Homo sapiens, UniProt Q13554)","enzyme activity, inhibitor",,10 µM,,inhibition,-0.9%
O=C1NC2(CC2)COc2ncc(F)cc2[C@H]2COCCN2c2ccn3ncc1c3n2,,,"Sprague-Dawley rat, female, spleen","oral, 2.5 mg/kg/day, 4 weeks, end of treatment",,organ-to-body weight ratio,0.303 ± 0.075%
CS(C)(=O)=Nc1ccc(-c2ccc(-c3nc4cc(O[C@@H]5CO[C@H]6[C@@H]5OC[C@H]6O)[nH]c4cc3F)cc2)cc1,"CLK2 (Homo sapiens, UniProt P49760)","enzyme activity, inhibitor",,10 µM,,inhibition,3%
CC(C)CC(O)(CC(C)C)c1cn(C(=O)N2CCCC2)nn1,"Neutral cholesterol ester hydrolase 1 (Mus musculus, UniProt Q8BLF1)","probe labelling, inhibitor, refers to: Aadacl1","mouse, brain","i.p., 0.8 mg/kg, 4 h, protein level","reference: treated over vehicle mice, lower = stronger inhibition",activity ratio-of-ratios,0.96
C#CCCCCOc1ccc2c(c1)CCCN2C(=O)CCl,"DDB1 (Homo sapiens, UniProt Q16531)",mass spectrometry profiling,H460 cell lysate,"100 µM over 10 µM, UniProt Q16531",reference: high over low concentration,reactivity ratio,1.62

# Repeated from above:
SMILES,target or system,test,test system,conditions,scale,quantity,value
CC(C)[C@H]1NC(=O)C[C@H]2/C=C/CCSSC[C@@H](NC1=O)C(=O)N[C@H](Cc1cccc3ccccc13)C(=O)NCC(=O)O2,"CAMK2B (Homo sapiens, UniProt Q13554)","enzyme activity, inhibitor",,10 µM,,inhibition,-0.9%
CN(C)[C@H]1C[C@@]23CC[C@@]4(O2)C(=CC[C@]2(C)[C@@H](c5ccc6ccncc6c5)CC[C@H]24)C=C3[C@@H](O)[C@@H]1O,"STK38L (Homo sapiens, UniProt Q9Y2H1)","ATP probe labelling, inhibitor, KiNativ profiling",,0.1 µM,,inhibition,3.2%
